Results of several laboratories.
Each line is one published result; not all experiments were run side by side. Numbers after ± are the reported error.

CC(C)OC(=O)[C@H](CCC(=O)C=[N+]=[N-])NC(=O)OC(OC(=O)C(C)(C)C)C(C)C (mixture of isomers)
remaining compound (swine plasma; 10 µM, 60 min, 37 °C): 100 ± 3%

C/C(=C\CCP(=O)(OCOC(=O)c1ccc(/N=N/c2ccc(N(C)C)cc2)cc1)Oc1ccc2ccc(=O)oc2c1)CO (centres unmarked)
remaining compound (human plasma 50% in PBS; 100 µM, 24 h, pH 7.5): 49 ± 4%

CCNc1nc(Cl)nc(NCC)n1
remaining amount (LC-MS/MS; herbicide solution; 2 h, 23 °C, added: 365 nm UV exposure): 30.8 ± 3.52%

CC[C@@H](C)[C@@H]1NC(=O)[C@@H](CC(C)C)NC(=O)CN(C)C(=O)[C@H]([C@H](C)CC)NC(=O)[C@@H](CC(C)C)NC(=O)CN(C)C1=O
remaining compound (human plasma; 2 h, 37 °C): ≥ 90%

CC[C@H](C)[C@H](NC(=O)[C@H](CC(C)C)NC(=O)[C@H](Cc1ccccc1)NC(=O)[C@H](CCCCN)NC(=O)[C@H](CC(N)=O)NC(=O)[C@H](CC(C)C)NC(=O)[C@@H](NC(=O)[C@H](Cc1c[nH]cn1)NC(=O)[C@H](CC(=O)O)NC(=O)[C@@H](NC(=O)[C@H](CO)NC(=O)[C@H](CO)NC(=O)[C@H](Cc1ccc(O)cc1)NC(=O)[C@@H](N)CCSC)[C@@H](C)O)[C@@H](C)CC)C(=O)N[C@@H](CC(C)C)C(=O)N[C@@H](Cc1c[nH]cn1)C(=O)N[C@@H](Cc1ccc(O)cc1)C(=O)N[C@@H](C)C(=O)N[C@@H](CC(C)C)C(=O)N[C@@H](CC(N)=O)C(=O)N1CCC[C@H]1C(=O)N[C@H](C(N)=O)[C@@H](C)O
remaining intact compound (HPLC and LC-MS; 25% human serum in DMEM; 100 µM, 5 h, 37 °C, 2.5% DMSO): ~70%

CC[C@H](C)[C@H](NC(=O)[C@H](CCCNC(=N)N)NC(=O)[C@H](CCCNC(=N)N)NC(=O)[C@H](CC(C)C)NC(=O)[C@H](CCC(N)=O)NC(=O)[C@H](CCC(=O)O)NC(=O)[C@H](C)NC(=O)[C@@H](NC(=O)[C@H](CNC(=O)c1cc(S(=O)(=O)F)ccc1C)NC(C)=O)[C@@H](C)CC)C(=O)NCC(=O)N[C@@H](CC(=O)O)C(=O)N[C@@H](CCCNC(=N)N)C(=O)N[C@@H](Cc1ccccc1)C(N)=O
remaining intact compound (1H NMR; aqueous buffer; 3 h 30 min, pH 7.5, room temperature): > 80%

COP(=O)(CC/C=C(\C)CO)OCOC(=O)c1ccc(/N=N/c2ccc(N(C)C)cc2)cc1 (centres unmarked)
remaining compound (human plasma 50% in PBS; 100 µM, 24 h, pH 7.5): 7.5 ± 0.7%

CC[C@H](C)[C@@H]1NC(=O)[C@@H]2CSSC[C@H](NC(=O)[C@@H](NC(=O)CN)[C@@H](C)O)C(=O)N[C@@H](CC(N)=O)C(=O)N[C@@H]([C@@H](C)O)C(=O)N3CCC[C@H]3C(=O)NCC(=O)N[C@H]3CSSC[C@H](NC(=O)[C@H](CCSC)NC(=O)[C@H](CC(C)C)NC(=O)[C@H](CCCNC(=N)N)NC(=O)CNC(=O)CNC(=O)[C@H](CC(=O)O)NC1=O)C(=O)NCC(=O)N[C@@H](CCC(=O)O)C(=O)N[C@@H]([C@@H](C)O)C(=O)N[C@H](C(=O)N[C@H](C(=O)NCC(=O)O)C(C)C)CSSC[C@H](NC(=O)[C@H]([C@@H](C)O)NC3=O)C(=O)N[C@@H](CO)C(=O)N[C@@H](Cc1c[nH]c3ccccc13)C(=O)N1CCC[C@H]1C(=O)N[C@@H](C(C)C)C(=O)N2
remaining intact peptide (LC-MS; trypsin in buffer; 2 h, 37 °C, added: trypsin 10 µg/mL): 80%

CCc1cccc(C)c1N(C(=O)CCl)C(C)COC (centres unmarked)
remaining amount (LC-MS/MS; herbicide solution; 2 h, 4 °C, added: 365 nm UV exposure): 35.4 ± 17.7%

CC(C)C(=O)OC[C@H]1O[C@@H](n2ccc(NO)nc2=O)[C@H](O)[C@@H]1O
remaining compound (rat brain dialysate; 250 ng/mL, 6 h, room temperature, bench-top stability, added: NHC 1000 ng/mL): 104 ± 1.44%

CC(C)Nc1nc(Cl)nc(NC(C)C)n1
remaining amount (LC-MS/MS; herbicide solution; 2 h, 40 °C, added: 254 nm UV exposure): 19.1 ± 12.4%

CC[C@H](C)[C@H](NC(=O)[C@@H](NC(=O)[C@H](CCC(=O)O)NC(=O)[C@@H]1CCCN1C(=O)[C@H](CO)NC(=O)[C@H](Cc1ccccc1)NC(=O)[C@H](C)NC(=O)[C@@H](N)CCCCN)C(C)C)C(=O)N1CCC[C@H]1C(=O)N[C@@H](CCSC)C(=O)N[C@@H](Cc1ccccc1)C(=O)O
remaining epitope (cytosolic extract; 1 nmol, 10 min, pH 7.4, 37 °C; baseline: time 0): 60%

Cc1cc2c(C(C)C)c(O)c(O)c(C=O)c2c(O)c1-c1c(C)cc2c(C(C)C)c(O)c(O)c(C=O)c2c1O
remaining concentration (acetonitrile extract of human plasma; 3.585 µg/mL, 24 h, 4 °C, autosampler): 101%

CCc1cccc(CC)c1N(COC)C(=O)CCl
remaining amount (LC-MS/MS; herbicide solution; 2 h, 40 °C, added: 365 nm UV exposure): 3.13 ± 0.56%

CC[C@@H](C)[C@@H]1NC(=O)[C@@H](Cc2ccccc2)OC(=O)CN(C)C(=O)[C@H]([C@H](C)CC)NC(=O)[C@@H](Cc2ccccc2)OC(=O)CN(C)C1=O
remaining compound (human plasma; 2 h, 37 °C): 100%

CCOCN(C(=O)CCl)c1c(C)cccc1CC
remaining amount (LC-MS/MS; herbicide solution; 2 h, 40 °C, added: 254 nm UV exposure): 20.3 ± 5.95%

CC[C@H](C)[C@@H]1NC(=O)[C@@H]2CSSC[C@H](NC(=O)[C@H](Cc3ccccc3)NC(=O)[C@@H](NC(=O)[C@@H](CO)NC(=O)[C@@H](Cc3ccccc3)NC(=O)[C@@H](CC(C)C)NC(=O)[C@@H]3CCCN3C(=O)[C@@H](CC(C)C)NC(=O)[C@@H](Cc3ccccc3)NC(=O)[C@@H](CCC(=O)O)NC(=O)[C@@H](C)NC(=O)[C@@H](Cc3ccccc3)NC(=O)[C@H](N)C(C)C)CSSC[C@@H](C(=O)N[C@@H](CC(C)C)C(=O)N[C@@H](CC(N)=O)C(N)=O)NC1=O)C(=O)N[C@@H]([C@@H](C)O)C(=O)N[C@@H](CCCNC(=N)N)C(=O)N[C@@H](CCSC)C(=O)N[C@@H](CO)C(=O)N1CCC[C@H]1C(=O)N1CCC[C@H]1C(=O)N[C@@H](CCC(N)=O)C(=O)N2
remaining intact peptide (pronase digestion; 20 h, pH 8.0, 25 °C, added: 1 M guanidine HCl): 55%

Repeated from above:
CCNc1nc(Cl)nc(NCC)n1
remaining amount (LC-MS/MS; herbicide solution; 2 h, 23 °C, added: 365 nm UV exposure): 30.8 ± 3.52%
